Measurements pooled from the literature.
Parts stem from different laboratories: compare values within a part only. Substitutions count along the parent as printed.

Study 1
Target: Fragile X messenger ribonucleoprotein 1, C-terminal low-complexity region (Fmr1, Mus musculus, UniProt P35922)
Method: RNA Bind-n-Seq
Form: RNA
Matrix: in vitro
Tested at: 200 nM
Setting: whole 134-nt RNA, ends assumed
Together with: 150 mM LiCl
Relative to: input library
Reading: higher = stronger binding
Measurement: log2 enrichment
All molecules: 7-deaza-guanosine replaces G
Shared flanks, not repeated: GGGAGUUCUACAGUCCGACGAUC … UGGAAUUCUCGGGUGUCAAGG
CAAGUCCUGUGCUACACAUCGUAUGUACCGAAUCGUGUGUGUGUGUGUGUGUGUGUAAAGUAUUAUGUUACGCCGUUCGGAUCUGCACUU: -0.627
CAAGUCCUGUGCUACACAUCGUAUGUACCGAAUCGGGAGGGUUUUUUUGGGAGGGAAAGUAUUAUGUUACGCCGUUCGGAUCUGCACUUC: 0.107
ACCAUGCAGGUGGGCAUCUUUGGGAAGUGGGGCAAGGGGGGGAUAGGGAGGGGGGUUACACUUUGGGAACAGGUGGUCCCAGGUCGUUUC: 1.42
UCCUGUGCUACACAUCGUAUGUACCGAAUCGGGUUUGGGAAAAAAAGGGAAAAAAAGGGAAAGUAUUAUGUUACGCCGUUCGGAUCUGCA: 0.215
UCCUGUGCUACACAUCGUAUGUACCGAAUCGGGGAAAAAGGGAAAAAGGGAAAAAGGGGAAAGUAUUAUGUUACGCCGUUCGGAUCUGCA: -0.656
CACAGACAAAACGCACCCACACAGACACAGAGGGAAGGGGUUGGGAUGGGGACAGGGUGCACAGCAGGGCGGGGUAGGACCCCAGCCCCU: 0.255
CUCAAGUCCUGUGCUACACAUCGUAUGUACCGAAUCGGAAAAAGGAAAGGUGGAAAGUAUUAUGUUACGCCGUUCGGAUCUGCACUUCCA: -0.832
UGGCCCUGGUGGCAUGCGGGGAGGAAGAGGUGGCCUCAUGGAUCGUGGUGGUCCCGGUGGAAUGUUCAGAGGUGGCCAUGGUGGAGACAG: -0.76
CUGUGCUACACAUCGUAUGUACCGAAUCGGGGUUUUUUUGGGUUUUUUUGGGUUUUUUUGGGAAAGUAUUAUGUUACGCCGUUCGGAUCU: 0.759
GCAGGAACUAAAAACAAAUGGAAAUGCUUCGGAUAGUGGCAGGGGUGGGGGUUGCUAAGGAAAGGGUGGGAUGGGAGUGGGUAAAGAGUU: 1.87
AAGUCCUGUGCUACACAUCGUAUGUACCGAAUCGGAAAAAAAGGAAAGGUUUUUGGAAAGUAUUAUGUUACGCCGUUCGGAUCUGCACUU: -2.65

Study 2
Target: RNA binding protein fox-1 homolog 2, RRM domain, GST-SBP tag (RBFOX2, Homo sapiens, UniProt O43251-10, residues 100-194)
Method: RNA Bind-n-Seq
Form: RNA
Matrix: in vitro
Tested at: 365 nM
Setting: natural RNA segment, single round, ends assumed
Relative to: no-protein control
Reading: higher = stronger binding
Measurement: RBNS enrichment (R)
Shared flanks, not repeated: GGGAGUUCUACAGUCCGACGAUC … UGGAAUUCUCGGGUGCCAA
Target sequence (chain): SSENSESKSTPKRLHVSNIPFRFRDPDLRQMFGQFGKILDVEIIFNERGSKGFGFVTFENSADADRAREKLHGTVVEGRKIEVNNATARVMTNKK
AACAUAGGAAGCUUUACCUUGGGGAAGGUAUGCUUUACAAAUGUCCAGUGUAAUGAAUGUUUGGAAAAAACUGGAGUUACAGGAAAAUGAAAUCUGACUAUCUGCUAGUU: 1.74
AAAAGAAGCAAACAGCGUUCAUUUCUGCUCCUGUAAUGGAGAAACAGCCAGCUCCCCUGCAUCCCUUACAGCCAACAGCUCCCUUCAGGCUUAGAGCAGGGGGAAUGGCA: 0.811
UGGUCUUCUUGGGCCAAGCAAUUUCUUUAAAGGAAAAGUUAGCAUUAUGUUUGUGGGGUGCCAGGGCCGCCACCACGAGAAACCGUGUGAUUUUUAUUUUAAUAUUAUUU: 1.05
UUUUUUGUUCAUUUUCUUCUACCAAGUAGAGGUUUAUGCCCUCAGAACUAAACUAGUAAAAAUAUCUGAACAAAAAACCUUUCGUUGUUGGCAUAAAAAUGUGAUACACU: 0.382
UCCACAAGGCAGAAGGGAUCACCGGUGGCAGUCACUCGCGUUUUGUGGAGUGUGGCAGGUGGACUUGCUGUGUCUGAUGGAAGGUCAGGGUCAGGAUCUACUGCCUCUGC: 0.237
CUACUUCCUUGGAACCAUCUCCAAAUUCCAAAUAGCCAACAACCCCCAACAUUAUAUACUCUGCUGCUUUUGUCUGGAAAACUCUACAGUGUUUGUGGGAUAUCCCCAAA: 0.615
CUGUAUUGACUGUGUAUGUGCCUUUCACCUUGAGCAUGCUUCAGGAAUUUUUUUUUUUCUUAAACCACAGAACUUGAAUACACAAGGGAACCAGAAUUCACAAAGUCCUA: 4.49
CUAGGUUCUUACUGACUGCUUUCUCCAGCUGUUCACAGCAGAUGCUUGGAUUUUAUGCAGUAGGCUUUACUACAGUACAUGGCUAAUCUUCCCCAAACUAGCUCAUUAAA: 0.44
AAAAGGAACUCUAUUAAUAAGCUAGACUGCUUUUGGUUUCCAGUAAUUGGUUUAAAAACACAGUAAAUUUACUGGCUUAUAAAGCUGAAAAAGCCUAGGAGUACUGGCAG: 0.347
AUGUGUGUCCCAAGGAAAUCCCUGUAAAUUUAACUCACCUACAAAAGGCUUUUUCCCCGCCUUUGGUUGUUAACGGCAUUCCUGAAAGCCACAUGUGUUUAUUCAUUGGG: 0.346
GAUUUUACUUUUAUUUUUUAAAAAUACUAAGCAGUGAUCUUUAUUAACUAGGACCAUUUUCCUGAAUUGGACUAUAUAACUCAGCAGUAUGUUUCAGUCUUUCGGAGUAA: 0.597
CAAACUUGAAUAGGGGCUGGGGUGCUGUCUUCCACUGACACCCAAAUCCAGAAUCCCUGGUCUUGAGUCCCCAGAACUUUGCCUCUUGACUGUCCCUUCUCUUCCUACCU: 0.309

Study 3
Target: Histone acetyltransferase KAT6A, both winged helices, GST fusion (KAT6A, Homo sapiens, UniProt Q92794, residues 1-181)
Method: protein binding microarray
Form: double-stranded DNA, one strand shown
Matrix: in vitro
Tested at: not given
Setting: 8-mer, flanks averaged, mean of 2 arrays, mostly near background
Relative to: not given
Reading: higher = stronger binding
Measurement: E-score
Construct (chain): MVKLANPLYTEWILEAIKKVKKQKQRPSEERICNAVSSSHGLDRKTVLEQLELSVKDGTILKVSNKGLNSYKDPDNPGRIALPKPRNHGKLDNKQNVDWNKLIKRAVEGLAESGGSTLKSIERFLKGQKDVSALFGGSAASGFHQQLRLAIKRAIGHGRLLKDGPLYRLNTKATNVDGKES
ATTCCTGA: -0.104
GATGCAAA: -0.146
TGGGACAA: -0.205
CAAATAAC: -0.0159
CAGCGACA: -0.119
ACAGCCCC: -0.00142
CTAACACA: -0.0479
CAGGTTAG: -0.12
CCCACCGG: 0.0967
CTACTGCA: -0.189
ATTTAGAA: -0.191
AATTTAGA: -0.149
ATCGGAGA: 0.0184
GTCTTACA: -0.0154
GTGCCTCA: -0.0383
CGCCCGCA: 0.23
CTATATGC: -0.0606
CAAGGCAA: -0.186
ATCCCGGA: 0.0365
AGGTAGTC: -0.214
CGCGACAA: 0.326
CATTATCC: 0.0865
ACCTTACA: -0.132

Study 4
Target: CCND2, cyclin fold, Cln2 fusion (human)
Method: yeast growth competition, sequencing
Matrix: yeast
Setting: weak parent motif
Relative to: not given
Reading: higher = stronger binding
Measurement: normalised enrichment score
Starting sequence: SAMHD1 docking peptide (human); ASKSRVQLFKDDP
Q7L: 0.177
D11A: -0.0599
D11I: 0.0669
K10F: -0.243
V6W: -0.257
S4Q: 0.147
L8R: -0.0412
R5V: 0.0185
K3M: 0.321
V6S: -0.311
K10Q: -0.046
D12V: 0.383
K3N: 0.173
D12K: 0.0952
D11N: -0.243
L8F: 0.0465
D12T: 0.135
L8D: 0.301
K10N: 0.114
K3A: 0.526
R5C: 0.279

Study 5
Target: Phosphate system positive regulatory protein PHO4, full length, GST-tagged (PHO4, Saccharomyces cerevisiae, UniProt P07270, residues 1-312)
Method: competition protein-binding microarray
Form: double-stranded DNA, one strand shown
Matrix: in vitro
Tested at: 2 µM
Setting: whole 60-bp probe, lowest competitor level
Together with: Cbf1 competitor, 0.05 µM
Reading: higher = stronger binding
Measurement: fluorescence intensity
Shared flanks, not repeated: … GTCTTGATTCGCTTGACGCTGCTG
Target sequence (chain): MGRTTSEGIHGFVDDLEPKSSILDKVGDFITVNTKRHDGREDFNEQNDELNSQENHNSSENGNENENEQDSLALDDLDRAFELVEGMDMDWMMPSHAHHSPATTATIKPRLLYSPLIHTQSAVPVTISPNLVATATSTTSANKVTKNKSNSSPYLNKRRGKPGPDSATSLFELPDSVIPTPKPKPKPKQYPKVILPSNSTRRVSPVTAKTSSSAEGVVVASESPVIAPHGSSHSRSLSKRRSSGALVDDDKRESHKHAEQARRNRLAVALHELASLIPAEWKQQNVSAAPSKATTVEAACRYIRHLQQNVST
GTCTTGTCTCATTGCAATGTGGGTGTCCCCACTTCA: 5850 a.u.
AAGAAATTACCGTCGCTCGTGATGGGTTTGCAAAAA: 6190 a.u.
AAACAAATGGTAATCCACGTGAATAATTGAGACAAA: 15100 a.u.
CATACCCAACCTTGATACGTGGGTGAAGATATTTGT: 7730 a.u.
CTTTCCCGATCTTTTCACGTGCGATTAGCACATTTG: 16200 a.u.
CGGGGTTAAGTTTGCTTCGTGGGTGGCTTGCAGCAG: 6710 a.u.
CGTCCTAGTGATTGTCTTGTGGGTGCCATGAGGAAG: 8040 a.u.
CTTTCCCGATCTTTTCACGTGGTATTAGCACATTTG: 13500 a.u.
CTAACGAAGGTTTTTCACGTGGATTACAAGCCAAGT: 14000 a.u.
CCTTCTCCCTGCATACACATGATAACCATCTACACC: 8360 a.u.
CGTAGACTTTTACGTCAGCTGAGAAAGAATATTTGT: 2870 a.u.
GTCTTGTCTCATTGGTATGTGGGTGTCCCCACTTCA: 5590 a.u.
AAATTACTAAGTTGCATCGTGGGTGACGCCGTATGA: 12500 a.u.
AGTGGGCTTTCTTGTCATGCCACTCAAGTTACAAGC: 3750 a.u.
TACATTTATGGCCTGTTCGTGATGGGTCAGCGAGCC: 4570 a.u.

Some of these lines once more (study 3):
ATTTAGAA: -0.191
CAAGGCAA: -0.186
GTCTTACA: -0.0154
CAGGTTAG: -0.12
CATTATCC: 0.0865
GATGCAAA: -0.146
ACAGCCCC: -0.00142
CGCCCGCA: 0.23
